Results gathered from unrelated publications.
Compare with care: the assays were run in different laboratories.

| Structure (SMILES) | assay | system | setting | scale | measurement | result |
| --- | --- | --- | --- | --- | --- | --- |
| CC(=O)Oc1ccc2c3c1O[C@H]1[C@@H](OC(C)=O)C=C[C@H]4[C@@H](C2)N(C)CC[C@@]341 |  | rat whole blood | 500 nM, 4 freeze-thaw cycles |  | stability bias | -7.75% |
| CC[C@H](C)[C@H](NC(=O)[C@H](Cc1ccc(O)cc1)NC(=O)[C@@H]1CCCN1C(=O)[C@H](CCCNC(=N)N)NC(=O)[C@@H](N)CCCNC(=N)NC(=O)NCCOCCOCCNC(=O)CCCCCN1/C(=C/C=C/C=C/C2=[N+](CCCCS(=O)(=O)[O-])c3ccccc3C2(C)C)C(C)(C)c2ccccc21)C(=O)N[C@@H](CC(C)C)C(=O)O | stable, RP-HPLC | PBS | up to 48 h, pH 7.4, 22 °C |  | stability | stable |
| C#Cc1nc(C(=O)N2CCC(NC(=O)c3cnc(-c4ccccc4)s3)(c3nc4ccccc4n3C)CC2)cs1 |  | phosphate-buffered saline | without DTT |  | stability time | > 4 h |
| COC(=O)[C@@H]1[C@H]2CC[C@@H](C[C@@H]1O)N2C |  | rat whole blood | 500 nM, 4 freeze-thaw cycles |  | stability bias | 5.58% |
| Cc1sc2c(c1C)C(c1ccc(Cl)cc1)=N[C@@H](CC(=O)OC(C)(C)C)c1nnc(C)n1-2 |  | 10% HP-β-cyclodextrin with DMSO | 5 mg/mL, 4 °C |  | stability in dosing formulation | 7 days |
| CSCC[C@H](NC(=O)[C@H](CCCCN)NC(=O)[C@H](CCCNC(=N)N)NC(=O)[C@H](CO)NC(=O)[C@H](Cc1c[nH]c2ccccc12)NC(=O)[C@H](CCCNC(=N)N)NC(=O)[C@H](CC(C)C)NC(=O)[C@H](N)CC(C)C)C(=O)N1CCC[C@H]1C(=O)N[C@@H](CS)C(=O)N[C@H](C(=O)N[C@@H](CO)C(=O)O)C(C)C |  | human plasma |  | time remaining stable | stability | > 8 h |
| CNc1cc[n+](CC(=O)Nc2ccc3c(c2)ncn3-c2c(C)noc2C)cc1.O=C[O-] |  | glutathione |  |  | stability | stable |
| CC[C@H](C)[C@H](NC(=O)[C@H](Cc1ccc(O)cc1)NC(=O)[C@@H]1CCCN1C(=O)[C@H](CCCNC(=N)N)NC(=O)[C@@H](N)CCCNC(=N)NC(=O)NCCCCNC(=O)CCCCCN1/C(=C/C=C/C=C/C2=[N+](CCCCS(=O)(=O)[O-])c3ccccc3C2(C)C)C(C)(C)c2cc(S(=O)(=O)O)ccc21)C(=O)N[C@@H](CC(C)C)C(=O)O | stable, RP-HPLC | PBS | up to 48 h, pH 7.4, 22 °C |  | stability | stable |
| CN1[C@H]2CC[C@@H]1[C@@H](C(=O)O)[C@@H](OC(=O)c1ccccc1)C2 |  | rat whole blood | 500 nM, 4 months, -80 °C |  | stability bias | 9.3% |
| O=C(O)CCC(CP(=O)(O)O)C(=O)O (stereo not shown) |  | rat plasma | 4 h, room temperature |  | stability | stable |
